Measurements pooled from the literature.
A part holds a random share of what one study measured.
UniProt P28566, sequence (whole entry, looked up): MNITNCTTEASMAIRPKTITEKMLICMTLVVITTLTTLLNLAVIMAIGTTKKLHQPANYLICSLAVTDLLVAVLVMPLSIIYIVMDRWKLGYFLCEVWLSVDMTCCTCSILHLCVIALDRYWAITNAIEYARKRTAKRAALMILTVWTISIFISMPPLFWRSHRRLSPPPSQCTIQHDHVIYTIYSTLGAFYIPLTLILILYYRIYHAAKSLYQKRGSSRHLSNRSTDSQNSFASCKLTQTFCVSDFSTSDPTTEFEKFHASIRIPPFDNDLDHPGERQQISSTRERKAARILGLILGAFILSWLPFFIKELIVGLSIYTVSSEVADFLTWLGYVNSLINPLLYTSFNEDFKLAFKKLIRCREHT

Study 1
Target: RNA binding protein fox-1 homolog 2, RRM domain, GST-SBP tag (RBFOX2, Homo sapiens, UniProt O43251-10, residues 100-194)
Technique: RNA Bind-n-Seq
Molecule type: RNA
Sample: in vitro
Concentration: 365 nM
Notes: natural RNA segment, single round, ends assumed
Relative to: no-protein control
Direction: higher = stronger binding
All sequences stand within: GGGAGUUCUACAGUCCGACGAUC … UGGAAUUCUCGGGUGCCAA
Construct (chain): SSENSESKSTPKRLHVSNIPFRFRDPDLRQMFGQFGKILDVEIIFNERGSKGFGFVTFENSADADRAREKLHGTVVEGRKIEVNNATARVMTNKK
Sequence | RBNS enrichment (R)
AGUGCCCUAUAAUCCCUCCCCCCUUUCUAAUUCAAUAUCUGGAGUAAGGAAUUCUUGGGUAGGGCACAGGGAUGGGGUUGCCAGCUUCUUCUUUCUUGUGGUGGGGCUCA | 0.534
UAGAAUAAAAUCUUAAAGCACUCAUAAUAUGGCAUCCUUCAAUUUCUGUAUAAAAGCAGAUCUUUUUAAAAAGAUACUUCUGUAACUUAAGAAACCUGGCAUUUAAAUCA | 0.962
UCUCAGCUUUGAGACCUGGGCUCUUUGGAGCACAGAGAACUUUGAUUUUUAAGCUUCUACAGAUAUGGUCCUAGAGACUGGGGUCCUCAGACACUCCCGCUGUAUGUGGU | 0.851
AUUUAGGUCUCUAAACACAGACUUUUUAAAUUGCAACUGUAAAUAUGAAAUGGUCAUCACAUCUGACCUUGGUCAGUGGGGAGGGGAACUGGUAUCCUGCCAAGCCUGGU | 0.499
CCUGAGUGGAACAUCUGGCCAUGCAUGGUUGUGAUGGGCCAUUGCUUUCGCUGCUUUAGAGCACCACAGACCUGACUGCUGCCGAGUCGGUCCCUGCAGCUAAUGCUCGA | 0.682
UGCGUUAAAUAUUGGGCAAAUUGCACUUGACUAAUUUUUGAAGAAAAGUAAUUUAUUCUGUCAAGAAAUUAAAAAUAGGCUUUGUGUAUGGUUAAACUGUAAAUCUUAUG | 0.453
UUUCUUACUUCAGGGAGGGGACAGUGGAAAUGCUGCAGGUCUCUGUCUUGGACACUGCAGAGUGCUGGGGACAGGGGUCACCGGUGUGGACCCUGCAGAGUGCUGGGGAC | 0.373
GAUUCCAUAAUGUGGAGACUAGUAACUAGAUCCUAAGGCAAAGAGGUGUUUCUCCUUCUGGAUGAUUCAUCCCAAAGCCUUCCCACCCAGGUGUUCUCUGAAAGCUUAGC | 0.243

Study 2
Target: Krueppel-like factor 3, full length (KLF3, Homo sapiens, UniProt P57682, residues 1-345)
UniProt P57682, sequence (whole entry, looked up): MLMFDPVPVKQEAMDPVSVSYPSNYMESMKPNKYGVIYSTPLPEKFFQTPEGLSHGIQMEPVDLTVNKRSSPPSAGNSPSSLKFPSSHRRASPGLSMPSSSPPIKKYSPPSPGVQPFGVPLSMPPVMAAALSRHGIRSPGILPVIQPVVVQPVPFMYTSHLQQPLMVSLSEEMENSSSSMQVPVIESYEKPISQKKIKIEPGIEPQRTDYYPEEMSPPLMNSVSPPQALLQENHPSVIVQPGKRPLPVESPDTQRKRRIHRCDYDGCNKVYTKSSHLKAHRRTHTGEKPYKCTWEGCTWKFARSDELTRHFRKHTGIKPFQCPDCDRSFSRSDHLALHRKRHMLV
Technique: protein-binding microarray
Molecule type: hairpin DNA
Sample: in vitro
Concentration: not given
Notes: whole hairpin DNA, median over replicate spots
Relative to: not given
Direction: higher = stronger binding
All sequences stand within: GAGGCCGACC … GGTCGGCCTCACACTC
Sequence | median fluorescence [a.u.]
CCGCCCAGCCTCCTGGCTGGGCGG (5mC at 11) | 8720
CGGCCCAGCCTCCTGGCTGGGCCG (5mC at 33) | 8120
GCGCCCCGCCTCCTGGCGGGGCGC | 9030
AGGCCCAGCCTCCTGGCTGGGCCT | 7770
ACGCCCAGCCTCCTGGCTGGGCGT (5mC at 15) | 9610
GCGCCCAGCCTCCTGGCTGGGCGC (5mC at 12 34) | 8490
ACGCCGAGCCTCCTGGCTCGGCGT (5mC at 15) | 9670
GCGCACAGCCTCCTGGCTGTGCGC | 8780

Study 3
Target: Sal-like protein 4, full length isoform A (SALL4, Homo sapiens, UniProt Q9UJQ4, residues 1-1053)
UniProt Q9UJQ4, sequence (whole entry, looked up): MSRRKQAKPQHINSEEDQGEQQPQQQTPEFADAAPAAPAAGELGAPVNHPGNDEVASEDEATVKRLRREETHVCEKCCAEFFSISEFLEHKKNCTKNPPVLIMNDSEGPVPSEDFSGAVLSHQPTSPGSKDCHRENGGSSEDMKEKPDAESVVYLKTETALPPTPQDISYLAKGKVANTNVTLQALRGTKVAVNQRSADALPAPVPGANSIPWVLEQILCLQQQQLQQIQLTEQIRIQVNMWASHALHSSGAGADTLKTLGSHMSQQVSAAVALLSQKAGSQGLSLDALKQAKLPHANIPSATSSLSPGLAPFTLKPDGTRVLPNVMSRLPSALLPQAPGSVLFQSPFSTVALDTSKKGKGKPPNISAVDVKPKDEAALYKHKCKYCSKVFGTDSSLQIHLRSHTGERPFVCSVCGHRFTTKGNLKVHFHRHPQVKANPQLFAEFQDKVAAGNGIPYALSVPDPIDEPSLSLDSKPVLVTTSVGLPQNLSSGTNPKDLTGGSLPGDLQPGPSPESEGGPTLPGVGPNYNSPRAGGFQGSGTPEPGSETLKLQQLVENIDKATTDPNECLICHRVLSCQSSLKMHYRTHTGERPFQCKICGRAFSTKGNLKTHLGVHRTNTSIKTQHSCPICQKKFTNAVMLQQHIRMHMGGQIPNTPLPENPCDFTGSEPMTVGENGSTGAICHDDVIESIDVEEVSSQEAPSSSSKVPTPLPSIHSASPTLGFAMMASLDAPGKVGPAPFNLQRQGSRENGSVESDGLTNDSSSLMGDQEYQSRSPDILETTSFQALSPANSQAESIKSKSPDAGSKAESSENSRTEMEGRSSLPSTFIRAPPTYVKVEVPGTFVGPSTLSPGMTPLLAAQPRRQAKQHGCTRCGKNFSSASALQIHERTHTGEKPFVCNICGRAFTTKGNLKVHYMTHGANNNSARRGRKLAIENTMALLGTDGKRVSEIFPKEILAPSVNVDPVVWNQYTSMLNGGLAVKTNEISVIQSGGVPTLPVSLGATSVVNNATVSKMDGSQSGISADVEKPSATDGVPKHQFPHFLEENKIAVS
Technique: universal PBM
Molecule type: double-stranded DNA, one strand shown
Sample: in vitro
Concentration: 600 nM
Notes: 8-mer, flanks averaged, mean of replicates
Direction: higher = stronger binding
Sequence | E-score
CTAAGTCC | -0.145
CACGAGAC | -0.205
GCGCTCCA | -0.339
AAAGCCAT | 0.156
AAGTGCAA | 0.0742
CGCGAATC | -0.113
AGGACAGA | -0.0189
AAGGGTAT | 0.17

Further values, each from its own experiment
Structure (SMILES) | target | test | setting | measurement | value
N#CN1CC[C@@H](C(=O)Nc2nc3c(s2)CN(C(=O)CN=[N+]=[N-])CC3)C1 | 5-hydroxytryptamine receptor 1E (HTR1E, Homo sapiens, UniProt P28566) | cell-free assay | 10 µM | inhibition | 6.5%

Excerpt of the above (study 1):
Sequence | RBNS enrichment (R)
UCUCAGCUUUGAGACCUGGGCUCUUUGGAGCACAGAGAACUUUGAUUUUUAAGCUUCUACAGAUAUGGUCCUAGAGACUGGGGUCCUCAGACACUCCCGCUGUAUGUGGU | 0.851
AUUUAGGUCUCUAAACACAGACUUUUUAAAUUGCAACUGUAAAUAUGAAAUGGUCAUCACAUCUGACCUUGGUCAGUGGGGAGGGGAACUGGUAUCCUGCCAAGCCUGGU | 0.499
CCUGAGUGGAACAUCUGGCCAUGCAUGGUUGUGAUGGGCCAUUGCUUUCGCUGCUUUAGAGCACCACAGACCUGACUGCUGCCGAGUCGGUCCCUGCAGCUAAUGCUCGA | 0.682
